Experimental data gathered from unrelated publications.
Lines come from different studies, so protocols differ. ± gives the spread as reported.

| SMILES | test | system | conditions | scale | endpoint | value |
| --- | --- | --- | --- | --- | --- | --- |
| CN1CC[C@@]23CCCC[C@@H]2[C@@H]1Cc1ccc(O)cc13 |  | Wistar rat, both sexes, plasma | oral, 5 mg/kg DEM, DEM 2 h after pretreatment, added: TCE 400 mg/kg single pretreatment |  | AUC(0-inf) | 60.2 ± 26.8 ng·h/mL |
| N[C@@]1(c2ccccc2Cl)CC[C@H](O)CC1=O |  | male CD-1 mice, plasma | intraperitoneal, 5 mg/kg |  | dose-normalized Cmax | 180 ± 10.6 ng/mL per mg/kg |
| Cc1ncc2n1-c1ccc(Cl)cc1C(c1ccccc1F)=NC2 |  | human CYP3A5*3/*3 non-expressers, serum | geometric mean, added: ketoconazole 200 mg |  | terminal half-life | 6.51 h |
| N[C@]1(c2ccccc2Cl)C[C@@H](O)CCC1=O |  | male CD-1 mice, plasma | intraperitoneal, 5 mg/kg |  | dose-normalized Cmax | 184 ± 1.8 ng/mL per mg/kg |
| CNC(C)Cc1ccc2c(c1)OCO2 (racemic) |  | human | oral, 1.5 mg/kg, mean over session, unit not given | baseline: pre-dose baseline | change in systolic blood pressure | 27.1 |
| C[C@H]1CNCCc2ccc(Cl)cc21 |  | male Sprague-Dawley rat, plasma | subcutaneous, 1 mg/kg, 0 h, given alone |  | plasma concentration | 0 ng/mL |
| CCCCCCCCCCC(=O)O[C@H]1CC[C@H]2[C@@H]3CCC4=CC(=O)CC[C@]4(C)[C@H]3CC[C@]12C |  | human blood, NaF/EDTA tubes | 600 ng/mL, 30 min | baseline: no compound added | testosterone change | 16.5% |
| N[C@]1(c2ccccc2Cl)CCC[C@H](O)C1=O |  | female CD-1 mice, plasma | intraperitoneal, 5 mg/kg |  | dose-normalized Cmax | 760 ± 17 ng/mL per mg/kg |
| COc1ccc2c(c1)[C@]13CCCC[C@@H]1[C@H](C2)N(C)CC3 |  | Wistar rat, both sexes, plasma | oral, 5 mg/kg, 2 h after pretreatment, added: single quinidine 2.5 mg/kg |  | CL/F | 667 mL/min/kg |
| C=C1C[C@@H]2[C@H](CC[C@]3(C)C(=O)CC[C@@H]23)[C@@]2(C)C=CC(=O)C=C12 | LC-MS/MS | postmenopausal breast cancer women, plasma | oral, 25 mg/day, 2 h, CYP3A4*22 carriers, White only |  | median plasma concentration | 13.5 ng/mL |
